Measurements collected from several papers.
Protocols differ between the studies behind these lines. Non-standard residues stand in square brackets, D forms with d. No end group written: not given here.
B1: K4 peptide residues 1-21 (Kaposi's sarcoma-associated herpesvirus); cysteine pairing not given here; all D-residues; chain [dL]G[dA][dS][dW][dH][dR][dP][dD][dK][dC][dC][dL]G[dY][dQ][dK][dR][dP][dL][dP]
B2: avrPtoB 250-359 (Pseudomonas syringae, UniProt Q8RSY1); chain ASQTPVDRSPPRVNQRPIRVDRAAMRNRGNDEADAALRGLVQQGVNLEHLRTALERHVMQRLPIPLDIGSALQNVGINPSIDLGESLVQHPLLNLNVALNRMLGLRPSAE
Chain of UniProt P00772 (whole entry, looked up): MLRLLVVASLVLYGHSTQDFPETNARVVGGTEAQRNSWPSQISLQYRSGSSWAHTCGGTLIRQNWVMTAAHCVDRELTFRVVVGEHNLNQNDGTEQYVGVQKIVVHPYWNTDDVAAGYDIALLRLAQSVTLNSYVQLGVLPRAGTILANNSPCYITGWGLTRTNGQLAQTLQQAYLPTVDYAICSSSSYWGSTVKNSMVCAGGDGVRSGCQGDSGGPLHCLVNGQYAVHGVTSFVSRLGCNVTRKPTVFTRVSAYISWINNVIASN
Chain of UniProt P61073 (whole entry, looked up): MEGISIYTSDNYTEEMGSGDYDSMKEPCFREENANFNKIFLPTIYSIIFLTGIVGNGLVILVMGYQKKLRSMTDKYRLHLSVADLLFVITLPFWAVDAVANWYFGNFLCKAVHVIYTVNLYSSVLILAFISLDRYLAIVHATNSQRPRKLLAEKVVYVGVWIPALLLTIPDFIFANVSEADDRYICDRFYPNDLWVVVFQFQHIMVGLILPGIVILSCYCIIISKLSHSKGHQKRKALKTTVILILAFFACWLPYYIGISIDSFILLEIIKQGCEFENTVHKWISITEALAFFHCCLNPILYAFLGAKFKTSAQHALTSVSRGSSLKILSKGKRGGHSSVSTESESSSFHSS
Chain of UniProt Q94F62 (whole entry, looked up): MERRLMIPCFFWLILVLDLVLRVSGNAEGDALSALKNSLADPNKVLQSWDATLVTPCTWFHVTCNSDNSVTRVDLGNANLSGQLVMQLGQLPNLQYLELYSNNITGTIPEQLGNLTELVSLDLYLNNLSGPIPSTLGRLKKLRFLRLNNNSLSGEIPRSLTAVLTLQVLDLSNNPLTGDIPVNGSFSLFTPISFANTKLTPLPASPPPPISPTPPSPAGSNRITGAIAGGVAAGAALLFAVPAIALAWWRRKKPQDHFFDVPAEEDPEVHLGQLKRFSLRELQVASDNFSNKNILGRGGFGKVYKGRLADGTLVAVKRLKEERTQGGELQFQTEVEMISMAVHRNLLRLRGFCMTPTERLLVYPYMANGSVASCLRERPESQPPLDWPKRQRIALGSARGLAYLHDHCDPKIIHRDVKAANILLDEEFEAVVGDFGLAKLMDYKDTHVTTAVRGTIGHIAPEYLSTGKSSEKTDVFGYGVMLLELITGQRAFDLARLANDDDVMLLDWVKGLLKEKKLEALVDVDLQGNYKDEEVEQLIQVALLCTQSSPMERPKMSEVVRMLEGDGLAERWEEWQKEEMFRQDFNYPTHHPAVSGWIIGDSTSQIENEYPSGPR
Chain of UniProt P80200 (whole entry, looked up): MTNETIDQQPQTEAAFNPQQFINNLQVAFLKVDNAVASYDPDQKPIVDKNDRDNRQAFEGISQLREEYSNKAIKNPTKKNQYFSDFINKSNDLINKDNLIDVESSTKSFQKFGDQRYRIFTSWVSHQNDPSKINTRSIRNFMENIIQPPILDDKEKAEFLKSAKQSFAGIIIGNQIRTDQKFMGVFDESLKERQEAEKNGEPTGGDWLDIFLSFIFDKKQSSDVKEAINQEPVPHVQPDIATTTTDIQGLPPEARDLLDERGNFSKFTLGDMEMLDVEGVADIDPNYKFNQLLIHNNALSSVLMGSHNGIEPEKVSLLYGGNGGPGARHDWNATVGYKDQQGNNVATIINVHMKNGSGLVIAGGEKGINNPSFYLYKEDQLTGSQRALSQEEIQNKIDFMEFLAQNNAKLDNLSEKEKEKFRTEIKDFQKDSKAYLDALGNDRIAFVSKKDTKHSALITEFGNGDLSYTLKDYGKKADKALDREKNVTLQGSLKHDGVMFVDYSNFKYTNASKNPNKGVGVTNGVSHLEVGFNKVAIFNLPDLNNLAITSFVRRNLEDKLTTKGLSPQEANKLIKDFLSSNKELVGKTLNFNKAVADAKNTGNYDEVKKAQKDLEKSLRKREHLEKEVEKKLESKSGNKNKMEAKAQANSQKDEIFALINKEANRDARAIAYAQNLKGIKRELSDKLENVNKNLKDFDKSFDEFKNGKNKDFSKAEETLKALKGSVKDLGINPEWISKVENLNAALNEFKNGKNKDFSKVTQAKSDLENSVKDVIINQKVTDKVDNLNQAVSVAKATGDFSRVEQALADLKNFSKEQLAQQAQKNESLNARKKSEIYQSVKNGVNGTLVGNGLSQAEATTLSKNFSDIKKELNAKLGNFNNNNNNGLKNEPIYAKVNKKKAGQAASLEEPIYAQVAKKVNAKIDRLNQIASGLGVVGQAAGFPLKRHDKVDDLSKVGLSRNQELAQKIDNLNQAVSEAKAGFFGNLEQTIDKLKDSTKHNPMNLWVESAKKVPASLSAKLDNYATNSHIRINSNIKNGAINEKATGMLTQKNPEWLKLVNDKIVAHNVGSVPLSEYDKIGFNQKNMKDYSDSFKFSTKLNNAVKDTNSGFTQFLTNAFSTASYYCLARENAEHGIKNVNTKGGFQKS
Chain of UniProt O60602 (whole entry, looked up): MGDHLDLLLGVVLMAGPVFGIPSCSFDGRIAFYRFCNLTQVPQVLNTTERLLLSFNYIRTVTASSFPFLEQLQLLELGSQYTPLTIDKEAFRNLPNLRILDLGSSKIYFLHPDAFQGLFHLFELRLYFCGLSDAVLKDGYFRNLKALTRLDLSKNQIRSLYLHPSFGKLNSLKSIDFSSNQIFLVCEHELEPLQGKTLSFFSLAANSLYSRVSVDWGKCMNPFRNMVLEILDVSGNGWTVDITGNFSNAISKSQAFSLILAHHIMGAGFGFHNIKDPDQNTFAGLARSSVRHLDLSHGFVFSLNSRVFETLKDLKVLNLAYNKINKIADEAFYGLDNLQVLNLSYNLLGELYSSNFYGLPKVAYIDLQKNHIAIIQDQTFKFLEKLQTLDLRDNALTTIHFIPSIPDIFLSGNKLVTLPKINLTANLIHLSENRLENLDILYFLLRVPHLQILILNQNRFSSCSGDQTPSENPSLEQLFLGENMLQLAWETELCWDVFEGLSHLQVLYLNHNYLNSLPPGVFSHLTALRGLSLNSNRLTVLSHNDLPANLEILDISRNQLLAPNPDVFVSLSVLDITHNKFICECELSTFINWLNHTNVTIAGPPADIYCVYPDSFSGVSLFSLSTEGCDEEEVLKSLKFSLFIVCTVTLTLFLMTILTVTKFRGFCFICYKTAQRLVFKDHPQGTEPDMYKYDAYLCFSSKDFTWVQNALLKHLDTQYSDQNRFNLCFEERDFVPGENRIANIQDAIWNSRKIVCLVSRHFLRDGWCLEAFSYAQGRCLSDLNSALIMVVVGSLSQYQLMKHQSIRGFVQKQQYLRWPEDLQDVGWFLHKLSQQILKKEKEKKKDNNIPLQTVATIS
Chain of UniProt P20581 (whole entry, looked up): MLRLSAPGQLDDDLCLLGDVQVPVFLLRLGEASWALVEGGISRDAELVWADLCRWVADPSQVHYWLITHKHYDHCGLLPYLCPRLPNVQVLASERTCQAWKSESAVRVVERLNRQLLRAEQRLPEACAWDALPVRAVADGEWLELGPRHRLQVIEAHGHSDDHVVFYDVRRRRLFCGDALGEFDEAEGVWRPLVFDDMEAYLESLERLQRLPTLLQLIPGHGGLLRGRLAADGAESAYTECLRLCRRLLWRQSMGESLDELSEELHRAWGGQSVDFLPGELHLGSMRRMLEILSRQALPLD

| Molecule | tested on | assay | test system | setting | scale | quantity | value |
| --- | --- | --- | --- | --- | --- | --- | --- |
| STKKLSECLKRIGDELDSNMELQR (Bax BH3 peptide BH3 domain) | M11 1-136 (UniProt P89884) | ITC | peptide | 14 °C, single-site model |  | Kd | 4000 nM |
| SipD fragment C244S/L318C, MTSL spin label at 318 (Salmonella) (sequence not shown) | PrgI fragment (Salmonella) | NMR paramagnetic relaxation enhancement |  |  |  | binding | binds |
| rhlR mBTL-bound (Pseudomonas aeruginosa) | pqsE 1-301 (Pseudomonas aeruginosa, UniProt P20581) | reporter light production |  | in cells, added: mBTL | baseline: strain without PqsE, higher = more light | light production enhancement | 4 fold |
| melittin |  | CD titration | POPC 75% POPG 25% vesicles | pH 7.0, 40 °C |  | free energy of partitioning | -7.16 kcal/mol |
| RUNX3 P1A in PPPY motif | CagA (Helicobacter pylori, UniProt P80200) | cycloheximide chase | COS-7 | co-expressed with CagA |  | half-life | > 3 h |
| fur (Acinetobacter baumannii, UniProt Q9ZAJ4) | BlsA (Acinetobacter baumannii) | pull-down |  |  | baseline: light, higher = more binding in dark | relative binding | 2 fold |
| RmS-17, glycosylated (Rhipicephalus microplus) | trypsin (Bos taurus) | chromogenic substrate hydrolysis, inhibitor |  | 1 µM |  | protease inhibition | 87% |
| B1 (K4 peptide residues 1-21) | CXCR4 (Homo sapiens, UniProt P61073) | competition with 12G5 antibody, competitor, flow cytometry | peptide, CXCR4 transfected cells |  |  | IC50 | 43 nM |
| fliC Q89A/R90A/Q97A (Salmonella enterica) | TLR5 (Homo sapiens, UniProt O60602) | NF-κB luciferase reporter | HEK293 | EC50 ratio | baseline: CBLB502 EC50, higher = weaker activity | decrease in NF-κB reporter signaling | 120 fold |
| B2 (avrPtoB 250-359) | BAK1 kinase domain 250-591, pT446/pT449/pT450 (Arabidopsis thaliana, UniProt Q94F62) | ITC |  |  |  | Kd | 3500 nM |
| RmS-3, glycosylated (Rhipicephalus microplus) | PLG plasmin (Homo sapiens) | chromogenic substrate hydrolysis, inhibitor |  | 1 µM |  | protease inhibition | < 20% |
| LDYHFGLEEGEGIRDLFD (E2F1 409-426 (Homo sapiens, UniProt Q01094)) | RB1/E7 RB ; E7 55-787 del245-267/del582-642 (human papillomavirus) | ITC |  | pH 8.0, NaCl 100 mM, added: LxCxE peptide 100 µM |  | Kd | 110 nM |
| HBA1/HBB mature (human) (sequence not shown) | isdB (Staphylococcus aureus, UniProt A6QG30) | BLI |  |  |  | Kd | 55 nM |
| RmS-6, glycosylated (Rhipicephalus microplus) | CELA1 (Sus scrofa, UniProt P00772) | chromogenic substrate hydrolysis, inhibitor |  | 1 µM |  | protease inhibition | < 20% |
